Measured values gathered from unrelated publications.
Numbered parts are unrelated; each lists some results of a single study. “And” joins repeats or separate records; there may be more than shown.

Study 1 — cell line: mouse MPNST tumor cells; technique: high-content nuclear imaging; refers to: cell number; concentration: 10 µM; time: 12 h; setting: mean of 2 replicates; relative to: plate mean; direction: higher = more cells; endpoint: nuclei count
CCOC(=O)COc1ccc2c(c1)C[C@@H](NC[C@H](O)c1cccc(Cl)c1)CC2: 0.456 z-score
O=C(Oc1cccc2cccnc12)c1ccccc1: -0.843 z-score
Oc1ccc(C2(c3ccccc3F)CCC(F)(F)CC2)cc1: -1.5 z-score
CC(C)(C)NCC(O)COc1cccc2c1CCC(=O)N2 (centres unmarked): 0.192 z-score
C[C@H](Cc1cc2c(c(C(N)=O)c1)N(CCCO)CC2)NCCOc1ccccc1OCC(F)(F)F: 0.711 z-score and 0.4 z-score
CN1CCN(C2=Nc3ccccc3Oc3ccc(Cl)cc32)CC1: 2.15 z-score
COc1ccc(C2=N[C@@H](c3ccc(Cl)cc3)[C@@H](c3ccc(Cl)cc3)N2C(=O)N2CCNC(=O)C2)c(OC(C)C)c1: -3.11 z-score and 1.49 z-score
CCOc1cc2ncc(C#N)c(Nc3ccc(OCc4cccc(F)c4)c(Cl)c3)c2cc1NC(=O)/C=C/CN(C)C: 2.6 z-score
CCOc1nc2cccc(C(=O)O)c2n1Cc1ccc(-c2ccccc2-c2nnn[nH]2)cc1: 1.62 z-score and 0.493 z-score
CO/N=C(\C(=O)N[C@@H]1C(=O)N2C(C(=O)O)=C(COC(N)=O)CS[C@H]12)c1ccco1: 0.74 z-score
COc1ccc(OC)c(C(O)CNC(=O)CN)c1 (centres unmarked): 1.84 z-score
CCOc1ccc(Oc2ccc(OCc3cc(F)ccc3F)cc2)c(N)c1: -1.45 z-score

Study 2 — observed: enzyme activity; mode: inhibitor; concentration: 0.5 µM; relative to: control; endpoint: remaining activity
Target: Dual specificity protein kinase TTK (TTK, Homo sapiens, UniProt P33981)
Residues (P33981 1-857): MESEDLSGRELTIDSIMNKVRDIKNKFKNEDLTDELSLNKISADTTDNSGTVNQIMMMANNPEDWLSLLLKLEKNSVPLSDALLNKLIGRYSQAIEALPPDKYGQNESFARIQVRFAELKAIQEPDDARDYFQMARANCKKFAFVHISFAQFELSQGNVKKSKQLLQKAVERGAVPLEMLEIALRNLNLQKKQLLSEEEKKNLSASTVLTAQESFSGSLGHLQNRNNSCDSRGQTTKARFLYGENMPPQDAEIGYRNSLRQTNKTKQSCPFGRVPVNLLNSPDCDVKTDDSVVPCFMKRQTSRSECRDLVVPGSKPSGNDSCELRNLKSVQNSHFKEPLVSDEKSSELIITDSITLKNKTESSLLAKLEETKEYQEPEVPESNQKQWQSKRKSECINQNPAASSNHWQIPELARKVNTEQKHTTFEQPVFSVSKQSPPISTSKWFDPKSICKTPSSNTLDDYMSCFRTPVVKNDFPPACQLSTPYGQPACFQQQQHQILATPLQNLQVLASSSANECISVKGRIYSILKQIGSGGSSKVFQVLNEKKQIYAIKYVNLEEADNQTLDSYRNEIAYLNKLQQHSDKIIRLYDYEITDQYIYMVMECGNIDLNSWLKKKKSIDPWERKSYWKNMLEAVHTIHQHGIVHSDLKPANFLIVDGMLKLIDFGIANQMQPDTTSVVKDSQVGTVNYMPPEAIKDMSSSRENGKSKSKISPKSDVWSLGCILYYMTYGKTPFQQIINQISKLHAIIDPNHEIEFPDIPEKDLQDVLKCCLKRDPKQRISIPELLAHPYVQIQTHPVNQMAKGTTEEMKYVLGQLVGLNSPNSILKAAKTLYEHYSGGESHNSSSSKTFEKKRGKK
O=Nc1c(-c2c(O)[nH]c3cc(Br)ccc23)[nH]c2ccccc12: 69.8%
c1ccc(-c2n[nH]c3c2oc2ccccc23)cc1: 95.7%
CCCCc1c(-c2ccc(OC)cc2)[nH]c2nccnc12: 87.9%
Cc1ccc(S(=O)(=O)/C=C/C#N)cc1: 107%
CN(C)S(=O)(=O)c1ccc2c(c1)/C(=C/c1cc3c([nH]1)CCCC3)C(=O)N2: 89.7%
COc1ccc2c(c1)c(C1=C(c3c[nH]c4ccccc34)C(=O)NC1=O)cn2CCCN(C)C: 89.9%
CCCNC(=O)Nc1ccc(Oc2ncnc3cc(OC)c(OC)cc23)cc1Cl: 88.6%
O=c1cc(N2CCOCC2)oc2c(-c3ccccc3)cccc12: 103%
O=C1Nc2ccc(Br)cc2/C1=C/c1cc2c([nH]1)CCCC2: 95.1%
O=C1Cc2c([nH]c3ccc(Br)cc23)-c2ccccc2N1: 80.9%
O=C1Nc2ccccc2/C1=C\c1c(Cl)[nH]c2ccccc12: 101%

Study 3 — host: mouse; medium: microsomes or S9; concentration: 2 µM; time: 0.5 h; endpoint: remaining compound
COC(=O)c1ncn2c1C(=O)OC(COc1ccccc1)C2 (centres unmarked): 51.4%
COc1cc(=O)[nH]cc1C(=O)N1CCNC(c2ccccc2)C1 (centres unmarked): 87.8%
CCOc1cc(-c2nnc3[nH]c(=O)n(C)c(=O)c3n2)ccc1OC(C)C: 65.3%
Cc1ccc(NC(=O)N2Cc3c(sc4c3CCCC4)-n3cccc3C2C)cc1Cl (centres unmarked): 9.06%
Cc1cc2n(n1)CC(CNC(C)COc1ccc(F)cc1F)CN2 (centres unmarked): 83.2%
O=c1c2c3c(nn2cnn1Cc1nc(-c2ccccc2F)no1)CCCC3: 7.86%
O=C(Nc1cc(Cl)ccc1Cl)c1c2c(nn1C1CCS(=O)(=O)C1)CCC2 (centres unmarked): 3.42%
O=C1NCC2C1CCCN2C(=O)c1cnn(-c2ccc(F)cc2)n1 (centres unmarked): 81%
COC(=O)c1ccc(CCC(C)NCC(O)c2cccc(Cl)c2)o1 (centres unmarked): 3.98%
O=S(=O)(Cc1cc(Cl)cc(Cl)c1)N1CCN(c2nccs2)CC1: 4.45%

Study 4 — observed: ligand displacement; concentration: 10 µM; endpoint: inhibition
Target: 5-hydroxytryptamine receptor 6 (HTR6, Homo sapiens, UniProt P50406)
Chain of UniProt P50406 (whole entry, looked up): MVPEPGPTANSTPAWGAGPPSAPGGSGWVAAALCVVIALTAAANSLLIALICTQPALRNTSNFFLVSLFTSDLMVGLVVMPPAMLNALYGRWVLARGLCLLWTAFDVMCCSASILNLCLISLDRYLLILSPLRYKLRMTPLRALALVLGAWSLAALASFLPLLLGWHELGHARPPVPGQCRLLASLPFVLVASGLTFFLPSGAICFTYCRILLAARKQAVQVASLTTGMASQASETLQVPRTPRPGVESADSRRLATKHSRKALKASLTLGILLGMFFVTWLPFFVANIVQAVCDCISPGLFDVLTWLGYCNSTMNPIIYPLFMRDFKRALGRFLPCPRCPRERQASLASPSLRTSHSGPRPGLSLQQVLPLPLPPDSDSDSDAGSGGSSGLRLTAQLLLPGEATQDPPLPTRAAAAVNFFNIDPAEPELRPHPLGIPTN
Nc1cnc(N2CCc3cc(S(=O)(=O)Nc4c(F)cc(Cl)cc4F)cc(N4CCCC4=O)c32)nc1: -26.7%
CN1CCN(C(=O)C(C)(C)c2ccc(C(=O)Nc3cn4cc(-c5cc(C(C)(C)C)cc(C(C)(C)C)c5)ccc4n3)cc2)CC1: 30.8%
CCOc1ccc(S(=O)(=O)Nc2ccc(Cl)cc2C#Cc2cnc(C(=O)O)cc2OC)c2ncccc12: 25.9%
Nc1nc(NCc2ccccc2)nc(-c2cccc(CO)c2)n1: 26.7%
CO[C@H]1CC[C@H](CNc2ccc(S(=O)(=O)NC(=O)c3ccc(N4CCN(CC5=C(c6ccc(Cl)cc6)CC(C)(C)CC5)CC4)cc3Oc3cnc4[nH]ccc4c3)cc2[N+](=O)[O-])CC1: -8.56%
Cc1noc([C@H]2C[C@@H](c3ccc(C(F)(F)F)cc3)CN(C(=O)N3CCS(=O)(=O)C3)C2)n1: 27.7%
C[C@H](c1ccnc(Nc2nc3ccc(-c4cc(N(C)C)ncn4)cc3[nH]2)c1)N1CCN(C(=O)CC(F)(F)F)CC1: -4.38%
CCc1ccccc1C(=O)Nc1n[nH]c2c(C)c(F)c(C3C(C#N)=C(C)N(C)C(C)=C3C#N)cc12: 9.23%
CC1=C(C#N)C(c2ccc3[nH]nc(C)c3c2)C(C#N)=C(C)N1: 20.7%
CN(C)C(=O)c1sc2nc(N3CCC(S(C)(=O)=O)CC3)cc(C(F)(F)F)c2c1N: 24.2%
COc1cc(-c2cn(C3CCc4c(F)cccc4N(CC(F)(F)F)C3=O)nn2)ccc1-n1cnc(C)c1 (centres unmarked): -4.64%
Cc1ncc(-c2cc(Cl)ccc2F)cc1-n1c(=O)n(CC(N)=O)c2ccccc21: 14.1%
O=C(NS(=O)(=O)c1ccc(NCC2CCOCC2)c([N+](=O)[O-])c1)c1ccc(N2CCN(Cc3ccc(C(F)(F)F)cc3-c3ccc(Cl)cc3)CC2)cc1Oc1cnc2[nH]ccc2c1: -14.8%
CC(=O)Nc1ncc(CN2CCC[C@H](Cc3cc(C)nc(C)c3)C2)s1: 14.3%

Excerpt of the above (study 3):
CCOc1cc(-c2nnc3[nH]c(=O)n(C)c(=O)c3n2)ccc1OC(C)C: 65.3%
COC(=O)c1ccc(CCC(C)NCC(O)c2cccc(Cl)c2)o1 (centres unmarked): 3.98%
Cc1cc2n(n1)CC(CNC(C)COc1ccc(F)cc1F)CN2 (centres unmarked): 83.2%
O=C(Nc1cc(Cl)ccc1Cl)c1c2c(nn1C1CCS(=O)(=O)C1)CCC2 (centres unmarked): 3.42%
O=C1NCC2C1CCCN2C(=O)c1cnn(-c2ccc(F)cc2)n1 (centres unmarked): 81%
COC(=O)c1ncn2c1C(=O)OC(COc1ccccc1)C2 (centres unmarked): 51.4%
O=c1c2c3c(nn2cnn1Cc1nc(-c2ccccc2F)no1)CCCC3: 7.86%
O=S(=O)(Cc1cc(Cl)cc(Cl)c1)N1CCN(c2nccs2)CC1: 4.45%
